Experimental data gathered from unrelated publications.
A part holds a random share of what one study measured.

Study 1 — technique: protein binding microarray; form: double-stranded DNA, one strand shown; sample: in vitro; concentration: not given; reference: not given; direction: higher = stronger binding; measurement: E-score
Target: Histone acetyltransferase KAT6A, both winged helices, GST fusion (KAT6A, Homo sapiens, UniProt Q92794, residues 1-181)
Setting: 8-mer, flanks averaged, mean of 2 arrays, mostly near background
Residues (chain): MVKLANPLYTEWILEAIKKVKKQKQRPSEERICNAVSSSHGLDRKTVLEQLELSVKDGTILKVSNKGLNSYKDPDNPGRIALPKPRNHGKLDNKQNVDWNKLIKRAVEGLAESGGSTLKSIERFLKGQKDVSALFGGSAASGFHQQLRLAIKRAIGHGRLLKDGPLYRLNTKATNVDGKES
ATTGCCAG: -0.253
GACATACC: 0.0222
ACGCTCAT: 0.0516
GAGCACAC: -0.177
GGCATGCC: 0.157
CGCGAGCC: 0.304
CCTGGGTA: -0.218
GGCGAACC: 0.26
AATCATCC: -0.0878
AGTAGGTC: -0.0398
GTGACGGA: 0.171
GGCTCGAC: 0.0597
AGCGACCA: -0.0364
CAGACCGA: 0.0503

Study 2 — technique: protein-binding microarray; form: double-stranded DNA, one strand shown; sample: in vitro; concentration: 250 nM; setting: 60-bp whole probe; together with: salmon DNA 0.4 mg/ml; reference: random background probes; direction: higher = stronger binding; measurement: log fluorescence; constant ends, left off below: GCCTAGCAC … GTCTTGATTCGCTTGACGCTGCTG
Target: Interferon regulatory factor 7, full length, phosphomimetic (IRF7, Homo sapiens, UniProt Q92985, residues 1-503, S101K/S471D/S472D/S475D/S476D/S477D/S483D/S484D/S487D)
Construct (chain): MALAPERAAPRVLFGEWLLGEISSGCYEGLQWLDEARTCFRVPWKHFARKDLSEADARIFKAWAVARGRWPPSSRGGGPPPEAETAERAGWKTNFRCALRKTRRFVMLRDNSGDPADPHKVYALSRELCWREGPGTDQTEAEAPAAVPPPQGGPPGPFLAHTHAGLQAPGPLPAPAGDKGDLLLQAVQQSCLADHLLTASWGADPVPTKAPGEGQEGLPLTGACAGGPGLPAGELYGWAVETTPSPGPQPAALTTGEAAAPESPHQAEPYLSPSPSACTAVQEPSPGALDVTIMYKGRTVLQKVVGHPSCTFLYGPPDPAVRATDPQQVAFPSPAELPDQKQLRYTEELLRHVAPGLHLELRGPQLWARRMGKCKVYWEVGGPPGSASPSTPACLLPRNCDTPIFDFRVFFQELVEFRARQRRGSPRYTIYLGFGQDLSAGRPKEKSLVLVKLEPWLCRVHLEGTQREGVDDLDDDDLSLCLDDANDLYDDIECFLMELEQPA
TTAGGTCTCAGTCTCGGTTAGTGCTAG: 1.61 z-score
GATGTTTTTCATTTTTTTTCGTGCTAG: 0.742 z-score
GACGGTTTCGACTATCGGGGCGTGCTA: 5.16 z-score
TTAGGTTTCGTTCTCCTTTAGTGCTAG: 11.1 z-score
GACGGTATCGACAATGGGGACGTGCTA: -0.332 z-score
GCCGGACTGCTTTTCCTGACGTGCTAG: 0.0549 z-score
TTAGGACTGGGTTTCGATTAGTGCTAG: 7.56 z-score
TTAGAATTGAGTCTCGATTAGTGCTAG: 1.41 z-score
TCATCTTCACATATAATACTGTGCTAG: 0.593 z-score
TCATTTTTGTTGTTTTTACTGTGCTAG: 1.04 z-score
GTCGGTTTCGGGTATCGGGACGTGCTA: 8.4 z-score
GTAGGACTGGGTTTCGGTTAGTGCTAG: 6.18 z-score
CTAGATTTCAGACTGGATTAGTGCTAG: 0.238 z-score
GACGATTTCGGGTATCGTGACGTGCTA: 0.752 z-score
GACGGTCTCCTTTTCCTGACGTGCTAG: 1.11 z-score

Study 3 — technique: RNA Bind-n-Seq; form: RNA; sample: in vitro; concentration: 200 nM; setting: whole 134-nt RNA, ends assumed; together with: 150 mM KCl; reference: input library; direction: higher = stronger binding; measurement: log2 enrichment
Target: Ras GTPase-activating protein-binding protein 1, full length (G3BP1, Homo sapiens, UniProt Q13283)
Sequence of UniProt Q13283 (whole entry, looked up): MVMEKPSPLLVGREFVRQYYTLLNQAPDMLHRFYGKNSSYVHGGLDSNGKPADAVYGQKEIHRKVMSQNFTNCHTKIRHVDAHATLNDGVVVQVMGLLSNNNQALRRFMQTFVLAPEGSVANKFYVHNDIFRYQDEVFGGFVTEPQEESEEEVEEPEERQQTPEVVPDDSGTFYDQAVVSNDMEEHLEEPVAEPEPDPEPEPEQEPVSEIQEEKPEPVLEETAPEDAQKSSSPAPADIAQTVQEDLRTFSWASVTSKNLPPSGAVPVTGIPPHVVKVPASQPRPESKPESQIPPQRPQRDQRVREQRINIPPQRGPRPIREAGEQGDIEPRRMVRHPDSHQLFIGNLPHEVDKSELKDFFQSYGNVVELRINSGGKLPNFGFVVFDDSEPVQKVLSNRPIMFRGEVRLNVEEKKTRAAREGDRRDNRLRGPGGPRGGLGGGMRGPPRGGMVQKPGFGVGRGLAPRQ
Constant ends, left off below: GGGAGUUCUACAGUCCGACGAUC … UGGAAUUCUCGGGUGUCAAGG
UCCUGUGCUACACAUCGUAUGUACCGAAUCGGGGAAAAAGGGAAAAAGGGAAAAAGGGGAAAGUAUUAUGUUACGCCGUUCGGAUCUGCA: 0.175
UAACUUUAGAGGAGGAUCUGAUGGAUAUGGCAGUGGACGUGGAUUUGGGUAUGGCUAUAAUGGGUAUGGAGGAGGACCUGGAGGUGGCAA: 0.113
CAAGUCCUGUGCUACACAUCGUAUGUACCGAAUCGGGAGGGAGGGUUUUUUUGGGAAAGUAUUAUGUUACGCCGUUCGGAUCUGCACUUC: 0.47
UGGCCCUGGUGGCAUGCGGGGAGGAAGAGGUGGCCUCAUGGAUCGUGGUGGUCCCGGUGGAAUGUACAGAGGUGGCCGUGGUGGAGACAG: 0.224
AAGUCCUGUGCUACACAUCGUAUGUACCGAAUCGGGAAAAAAAGGGAAAGGGAGGGAAAGUAUUAUGUUACGCCGUUCGGAUCUGCACUU: 0.402
UCCUGUGCUACACAUCGUAUGUACCGAAUCAAAUUUUUAAACCCCCCCAAAUUUUUAAAAAAGUAUUAUGUUACGCCGUUCGGAUCUGCA: 0.37
UGGGAGGUGGAUUUUGUUUAUUUUUUAAGCUCAUUUCCAGGGGUGGGAAUUUUUUUUUAAUAUGUGUCAUGAAUAAAGUUGUUUUUGAAA: 0.0519
GUCCUGUGCUACACAUCGUAUGUACCGAAUCGGUUUUUUGGUUUUUUGGGUUUUUUGGAAAGUAUUAUGUUACGCCGUUCGGAUCUGCAC: -1.18
CAAGUCCUGUGCUACACAUCGUAUGUACCGAAUCGGGGCCCGGGGCCCGGCCCGGGAAAGUAUUAUGUUACGCCGUUCGGAUCUGCACUU: -0.725
UGGGAGGUGGAUUUUGUUUAUUUUUUUAGCUCAUUUCCAGGGGUGGGAAUUUUUUUUUGAUAUGUGUCAUGAAUAAAGUUGUUUUUGAAA: 0.31

Other studies, line by line
PhoQ, residues 284 288 289 292 302 303 ALAMYF
fold induction (PhoP, residues 12 14 15 18 19 QWHVF (Escherichia coli, UniProt P23836); Sort-seq, refers to: YFP reporter; E. coli; PhoQ-PhoP variant library, together with: 10 µM Mg2+; reference: high Mg2+ state, higher = stronger signaling): 2.83

For quick reference, copied from above (study 2):
TTAGGTCTCAGTCTCGGTTAGTGCTAG: 1.61 z-score
GATGTTTTTCATTTTTTTTCGTGCTAG: 0.742 z-score
GACGGTTTCGACTATCGGGGCGTGCTA: 5.16 z-score
TTAGGTTTCGTTCTCCTTTAGTGCTAG: 11.1 z-score
GACGGTATCGACAATGGGGACGTGCTA: -0.332 z-score
